Published values of several laboratories.
A part holds a random share of what one study measured. Changes are numbered by the printed parent chain.
Chain of UniProt Q8RYC8 (whole entry, looked up): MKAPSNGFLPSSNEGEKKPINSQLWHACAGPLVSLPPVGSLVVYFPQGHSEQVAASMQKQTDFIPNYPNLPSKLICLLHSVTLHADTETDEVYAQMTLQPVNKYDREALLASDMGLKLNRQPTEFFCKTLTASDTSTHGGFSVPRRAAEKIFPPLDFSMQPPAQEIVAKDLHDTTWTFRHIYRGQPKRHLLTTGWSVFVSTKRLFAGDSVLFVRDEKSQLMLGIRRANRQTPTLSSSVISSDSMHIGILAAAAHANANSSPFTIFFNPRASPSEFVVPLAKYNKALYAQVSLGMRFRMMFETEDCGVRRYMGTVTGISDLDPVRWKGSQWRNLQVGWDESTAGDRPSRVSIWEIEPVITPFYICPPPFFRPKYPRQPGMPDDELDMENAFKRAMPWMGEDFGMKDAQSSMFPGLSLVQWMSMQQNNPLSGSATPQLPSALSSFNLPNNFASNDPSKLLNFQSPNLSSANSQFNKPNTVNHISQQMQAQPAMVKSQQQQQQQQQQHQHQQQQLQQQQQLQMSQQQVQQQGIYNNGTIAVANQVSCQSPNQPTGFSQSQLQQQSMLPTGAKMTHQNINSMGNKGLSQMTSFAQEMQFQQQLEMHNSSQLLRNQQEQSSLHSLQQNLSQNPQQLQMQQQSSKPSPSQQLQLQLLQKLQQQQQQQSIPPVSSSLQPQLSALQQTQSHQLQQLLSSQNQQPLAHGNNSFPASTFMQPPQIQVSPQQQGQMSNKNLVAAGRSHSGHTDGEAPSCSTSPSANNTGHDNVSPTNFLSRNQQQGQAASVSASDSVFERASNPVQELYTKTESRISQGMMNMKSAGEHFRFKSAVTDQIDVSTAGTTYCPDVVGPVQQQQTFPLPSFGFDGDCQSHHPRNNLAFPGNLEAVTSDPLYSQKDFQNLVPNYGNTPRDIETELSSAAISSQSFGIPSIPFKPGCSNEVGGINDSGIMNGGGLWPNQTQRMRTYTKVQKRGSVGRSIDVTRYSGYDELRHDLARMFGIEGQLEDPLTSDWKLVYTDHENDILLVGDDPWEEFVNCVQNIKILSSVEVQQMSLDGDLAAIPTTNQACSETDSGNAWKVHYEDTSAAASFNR
Chain of UniProt P93022 (whole entry, looked up): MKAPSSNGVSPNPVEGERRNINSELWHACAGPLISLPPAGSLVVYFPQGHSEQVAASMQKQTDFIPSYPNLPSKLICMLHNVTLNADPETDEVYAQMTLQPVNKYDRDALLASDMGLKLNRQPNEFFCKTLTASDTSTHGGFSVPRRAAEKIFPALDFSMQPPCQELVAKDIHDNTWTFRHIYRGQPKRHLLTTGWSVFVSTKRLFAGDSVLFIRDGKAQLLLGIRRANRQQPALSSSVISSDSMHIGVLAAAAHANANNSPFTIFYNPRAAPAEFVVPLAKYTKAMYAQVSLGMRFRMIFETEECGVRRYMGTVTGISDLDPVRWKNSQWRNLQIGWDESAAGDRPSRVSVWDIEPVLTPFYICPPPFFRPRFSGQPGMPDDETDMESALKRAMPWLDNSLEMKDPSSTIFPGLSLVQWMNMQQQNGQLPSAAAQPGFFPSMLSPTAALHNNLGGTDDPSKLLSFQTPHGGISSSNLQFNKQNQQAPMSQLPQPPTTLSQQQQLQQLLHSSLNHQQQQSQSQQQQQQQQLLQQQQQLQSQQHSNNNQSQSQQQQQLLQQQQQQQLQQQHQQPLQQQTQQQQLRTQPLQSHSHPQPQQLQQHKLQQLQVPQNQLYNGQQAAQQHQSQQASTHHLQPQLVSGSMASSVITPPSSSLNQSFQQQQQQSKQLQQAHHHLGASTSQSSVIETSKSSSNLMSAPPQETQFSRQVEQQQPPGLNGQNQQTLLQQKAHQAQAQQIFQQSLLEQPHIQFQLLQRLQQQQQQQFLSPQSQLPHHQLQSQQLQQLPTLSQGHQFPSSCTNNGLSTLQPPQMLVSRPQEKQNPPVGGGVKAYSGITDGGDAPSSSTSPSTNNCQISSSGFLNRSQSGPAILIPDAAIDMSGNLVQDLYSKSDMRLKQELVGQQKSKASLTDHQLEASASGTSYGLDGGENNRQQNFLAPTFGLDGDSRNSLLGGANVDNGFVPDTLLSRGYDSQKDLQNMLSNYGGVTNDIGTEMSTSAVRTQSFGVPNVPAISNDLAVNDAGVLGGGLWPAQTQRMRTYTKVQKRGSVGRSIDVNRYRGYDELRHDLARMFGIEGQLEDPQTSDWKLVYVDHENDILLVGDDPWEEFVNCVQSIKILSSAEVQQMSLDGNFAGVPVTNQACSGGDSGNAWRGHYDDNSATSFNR
Chain of UniProt Q8L7G0 (whole entry, looked up): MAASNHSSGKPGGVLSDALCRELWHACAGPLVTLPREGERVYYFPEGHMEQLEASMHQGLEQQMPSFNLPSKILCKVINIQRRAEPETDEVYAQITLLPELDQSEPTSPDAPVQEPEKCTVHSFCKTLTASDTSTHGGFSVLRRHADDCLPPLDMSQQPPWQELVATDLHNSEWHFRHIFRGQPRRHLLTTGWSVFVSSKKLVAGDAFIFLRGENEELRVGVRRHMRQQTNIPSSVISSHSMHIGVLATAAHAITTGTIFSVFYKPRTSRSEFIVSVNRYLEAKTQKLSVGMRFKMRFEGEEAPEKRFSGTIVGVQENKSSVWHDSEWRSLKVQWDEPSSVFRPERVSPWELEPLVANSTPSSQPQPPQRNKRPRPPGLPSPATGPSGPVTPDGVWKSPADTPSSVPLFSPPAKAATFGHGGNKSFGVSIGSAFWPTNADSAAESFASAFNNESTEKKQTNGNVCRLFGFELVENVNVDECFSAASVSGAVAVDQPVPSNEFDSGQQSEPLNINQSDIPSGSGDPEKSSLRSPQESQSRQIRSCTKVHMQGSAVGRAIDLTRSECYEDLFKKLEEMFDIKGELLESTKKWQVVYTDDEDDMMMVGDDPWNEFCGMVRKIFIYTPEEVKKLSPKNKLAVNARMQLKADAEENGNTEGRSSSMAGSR
Chain of UniProt O24409 (whole entry, looked up): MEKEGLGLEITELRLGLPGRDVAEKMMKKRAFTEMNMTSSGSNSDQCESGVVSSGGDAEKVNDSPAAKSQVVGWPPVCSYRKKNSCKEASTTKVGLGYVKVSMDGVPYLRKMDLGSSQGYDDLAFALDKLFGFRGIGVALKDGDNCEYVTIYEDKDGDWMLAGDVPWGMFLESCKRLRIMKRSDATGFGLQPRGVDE
Chain of UniProt O23661 (whole entry, looked up): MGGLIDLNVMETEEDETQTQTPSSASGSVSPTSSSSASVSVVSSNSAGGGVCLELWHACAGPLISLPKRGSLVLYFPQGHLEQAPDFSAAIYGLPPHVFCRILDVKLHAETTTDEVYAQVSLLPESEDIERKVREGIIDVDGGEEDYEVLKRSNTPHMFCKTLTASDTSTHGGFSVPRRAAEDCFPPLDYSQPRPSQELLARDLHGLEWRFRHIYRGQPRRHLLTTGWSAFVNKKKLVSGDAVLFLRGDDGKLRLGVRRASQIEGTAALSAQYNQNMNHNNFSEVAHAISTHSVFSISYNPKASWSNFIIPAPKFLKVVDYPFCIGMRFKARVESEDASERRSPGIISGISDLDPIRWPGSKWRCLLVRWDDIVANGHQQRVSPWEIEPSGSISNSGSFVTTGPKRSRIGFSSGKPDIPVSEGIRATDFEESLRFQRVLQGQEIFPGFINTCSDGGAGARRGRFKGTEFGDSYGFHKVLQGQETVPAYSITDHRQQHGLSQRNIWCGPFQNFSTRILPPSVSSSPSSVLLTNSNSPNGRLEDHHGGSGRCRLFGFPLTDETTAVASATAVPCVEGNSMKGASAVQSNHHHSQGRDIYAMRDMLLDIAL
Chain of UniProt Q9XID4 (whole entry, looked up): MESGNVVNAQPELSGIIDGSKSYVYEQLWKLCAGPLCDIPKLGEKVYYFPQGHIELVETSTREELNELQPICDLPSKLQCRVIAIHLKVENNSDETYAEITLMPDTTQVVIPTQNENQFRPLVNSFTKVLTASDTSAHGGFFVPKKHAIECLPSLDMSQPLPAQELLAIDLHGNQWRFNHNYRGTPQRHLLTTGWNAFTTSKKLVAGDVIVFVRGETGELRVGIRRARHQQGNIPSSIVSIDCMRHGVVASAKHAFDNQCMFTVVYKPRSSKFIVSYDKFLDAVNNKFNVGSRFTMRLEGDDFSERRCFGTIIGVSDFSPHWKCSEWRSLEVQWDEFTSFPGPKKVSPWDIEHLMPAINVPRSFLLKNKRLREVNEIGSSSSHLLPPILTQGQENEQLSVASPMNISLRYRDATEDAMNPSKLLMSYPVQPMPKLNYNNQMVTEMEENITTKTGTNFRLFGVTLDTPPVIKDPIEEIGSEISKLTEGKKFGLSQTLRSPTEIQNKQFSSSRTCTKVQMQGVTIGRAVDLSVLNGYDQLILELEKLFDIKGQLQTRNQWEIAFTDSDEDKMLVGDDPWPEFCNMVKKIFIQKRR

Set 1
Target: CCND1, cyclin fold, Cln2 fusion (human)
Technique: yeast growth competition, sequencing
Medium: yeast
Notes: weak parent motif
Baseline: not given
Reading: higher = stronger binding
Starting sequence: LLGL2 docking peptide (human); KSLKKSLRQSFRR; partner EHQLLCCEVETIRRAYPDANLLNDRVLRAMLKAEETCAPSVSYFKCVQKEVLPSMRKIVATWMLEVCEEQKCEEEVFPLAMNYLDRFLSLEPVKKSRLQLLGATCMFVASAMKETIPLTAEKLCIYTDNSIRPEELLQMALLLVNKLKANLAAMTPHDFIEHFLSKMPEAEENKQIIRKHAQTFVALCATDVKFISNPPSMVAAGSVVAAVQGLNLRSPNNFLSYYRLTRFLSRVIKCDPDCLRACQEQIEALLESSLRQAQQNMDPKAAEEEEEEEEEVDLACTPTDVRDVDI
| Variant | normalised enrichment score |
| --- | --- |
| K5A | 0.782 |
| Q9A | 0.854 |
| S10A | 0.467 |
| F11A | -0.413 |
| S2A | 0.182 |
| L3A | -0.402 |

Set 2
Target: Hepatocyte nuclear factor 3-alpha (Foxa1, Mus musculus, UniProt P35582, residues 1-468, full length assumed)
Technique: EMSA with sequencing
Form: double-stranded DNA, one strand shown
Medium: in vitro
Tested at: 10 and 20 nM
Notes: whole designed probe, mean of two concentrations, ends assumed
Baseline: negative control set to 0
Reading: higher = stronger binding
Constant ends, left off below: GTGAGCGGTGCCCATTGATGGGGAAC … TTTCACTGGGATCGTGGGGAC
Construct (chain): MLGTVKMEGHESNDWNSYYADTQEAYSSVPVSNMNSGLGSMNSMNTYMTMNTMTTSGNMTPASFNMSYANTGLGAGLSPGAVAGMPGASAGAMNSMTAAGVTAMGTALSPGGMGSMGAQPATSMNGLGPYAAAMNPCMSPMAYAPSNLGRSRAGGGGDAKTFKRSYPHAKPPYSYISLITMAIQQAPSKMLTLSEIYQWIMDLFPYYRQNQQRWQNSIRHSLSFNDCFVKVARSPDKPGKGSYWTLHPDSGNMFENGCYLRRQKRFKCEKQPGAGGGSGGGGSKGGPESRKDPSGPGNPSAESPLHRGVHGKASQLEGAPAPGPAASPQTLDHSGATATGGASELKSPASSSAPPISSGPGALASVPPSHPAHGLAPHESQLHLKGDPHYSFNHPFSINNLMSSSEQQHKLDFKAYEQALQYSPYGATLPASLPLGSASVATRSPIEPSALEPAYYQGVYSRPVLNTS
| Strand | normalised bound fraction [ratio] |
| --- | --- |
| AAAGGGTATTGTTTCAAAGCAGGGCTAGCAGAAGGCAGTAGACAGAGGGTGTTCGCTGTCAGAGTCTGGGGCGCTGCTGCAGGCTCACCTGGCAGAGTACTCTGCTCCCATTCACCTAGTGAAATCGTGTAAATAATGAAGTGCACACATTGCATAACAAACAGGAACTCTTCTGATCCAAAGAGGTGGCATT | 0.246 |
| CAAGTTTGTGGTCCAGGAGCAACAGGTTATGCCATACAGCCTAGGTGTGTAGTAGGCTACACACCGTCTATGTTTGTGTTGTACACTCTTTGTGCAAACATTGTTGATGAAACCATGACTCATTCTTCTCAGAACATACCCCTGTTGTTAAGCGATACATGACTGTACTTTTTTTAAAAAGTCCAAGGATATA | 0.409 |
| AGACTGGCTGCCCGGCTGGAAGGTGGGGCCCTGGCACGCGAGGACCTCATGTGTGGAGGCACTGGCTTGGGGGGTGCTCCCAGTGGCTCTAGAGTCATCTTGACAGGCATCGAATGGCTCCTGTTTCTCTGGCAGAGTTGGGGCAGAGCCAGGCTTGGCCACGCTGGGCTCTAAGGGGCTGTCATTTTGCCCA | -0.0905 |
| ATCTTCCCCCTCTTCCTTGCCCCACCAGCTCACCTTCCCGGGTTATTTGCAGATAGGAAAATAAATAAAGCCGGCTTTTTTTTTCCCTCTTCTGGCGCAAACTGCTGTTTGCTCTGGATGAATCATGGTCCTTTGGCGACGCCAGGCTCCGGGAGAGCAAAGCACCGTGTCAGGGCCATGATCCGGGGTGGCC | 0.335 |
| TTATGAGCCTTCCCATGTTATGGCTACATAGCTGTGATTATGTAATAAGTGGAGTTACGCTCCTGCGCTCCAAACTCGCTGAGTCACACAGGAAGATTACCTTGGCCTATGCCTGCCTGGCTGCAGTGCAGGCATATTCCTTACAAATAAACATTTCCTGAGAAACACCTACATGCTGGGCACTCTATTAGGC | 0.0864 |
| ATAAAAGTCAAGGTGACTTCTGTTTTCTATACAAACAGAAATCTCCTTCATTTTTTATTCTTCTTAGACCAGGGGTATGTGTGTGTGAACTCCCTGTTTACATTGTACTAATAGCAATAAGCTAGGGGTACGAAAAGTAGTAATACAAGGTAGAAAGTGAGAGTAACTAGGATGTGACTTCTCTGCTGTGTAT | 0.378 |
| ATCTTCCCCCTCTTCCTTGCCCCACCAGCTCACCTTCCCGGGTATCTGCAAATAAGTATTTATTTTCAAGCCGGCATTCGTTAACCCTCTTCACGCGCATACTGCCAAAGTAAACAGATGAATCATGGTCCTTTGGCGACGCCAGGCTCCGGGAGAGCAAAGCACCGTGTCAGGGCCATGATCCGGGGTGGCC | 0.449 |
| ATCTTCCCCCTCTTCCTTGCCCCACCAGCTCACCTTCCCGGGTTATTTGCAGATAGGAAAAGAATAAAATCCGGCATTCGTTAACCCTCTTCTGGCGCAAACTGCTGTTTGCTCTGGATGAATCATGGTCCTTTGGCGACGCCAGGCTCCGGGAGAGCAAAGCACCGTGTCAGGGCCATGATCCGGGGTGGCC | 0.135 |

Set 3
Target: RNA binding protein fox-1 homolog 2, RRM domain, GST-SBP tag (RBFOX2, Homo sapiens, UniProt O43251-10, residues 100-194)
Technique: RNA Bind-n-Seq
Form: RNA
Medium: in vitro
Tested at: 365 nM
Notes: natural RNA segment, single round, ends assumed
Baseline: no-protein control
Reading: higher = stronger binding
Constant ends, left off below: GGGAGUUCUACAGUCCGACGAUC … UGGAAUUCUCGGGUGCCAA
Construct (chain): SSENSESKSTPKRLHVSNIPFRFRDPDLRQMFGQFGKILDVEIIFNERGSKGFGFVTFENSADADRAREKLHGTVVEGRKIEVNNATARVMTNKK
| Strand | RBNS enrichment (R) |
| --- | --- |
| AUAAGAUCACUUCAUUUUCAACUUAGACCCACCGUUUCUUUUUUGUUGUUUUGUUUUGUUUGGUUUGGUUUGGUUGGGUUGGGUUGUUGUUUUUGGUUUUUUCGAGACAG | 13.7 |
| AGGAGGCAGAGCCACAGCCAAGGCCCUGACCACUUCUGUGCCAGUUGUCUAAGCAGAGCGCCUCAGGGACGCUGGAAAUGCCUUAAGGAUAGAGGCUGGGCAUCACAUCA | 0.736 |
| GAAUGACUGGCUCCCCUGCCCUUUUAGACAAAGGCUGCUGCUUUCAGCCUUCUCCAAGGGAGAGCCUGGCUGGCUAACAGAGGGAGCCUGAGUCAGUCACAUCUGGCAGC | 0.302 |
| AGAACGUUUUUGUACAAUUUUUUUUCAUUUAAUUGGAAUGAUCUUCAGGUUUCUACAAAUAGGGUAAUUGUAAAUUUAAAGCAUUAGCAUUUAUUGGUGAAUAAUGUAUA | 0.939 |
| AUCUGUAUUAUACACUAAGCUAUUACAAUGGUACUUAAAAUAAUGUAAAUUUGAAGUCAUUGUUAUAAAAUAAUAAAGUGGAGAUUACUUAAGUAUUUAAAUUAUGAAAG | 0.557 |
| ACCAAGGAGACCCCCAAGGGUACCACUGCCUGAGGACAGCAGAGAGAACCUGCCUCCCUCCCAGAAGUCACAGCACCUGCUUCUCAGCUCCUCAUGUGUGCAUGUGUGCC | 1 |
| UCAGGGCCAGUGCCAUCUGUGAUUCAUGAUCACUAGGUUAUAGGUGAAAUCUCAGUAAGUUAUUUUGGAGUUUAUUAAAGGUUCACAUUUUAAGUACAACUUUUCAGGCU | 0.65 |
| AUUCUUUUGUGUCUGACACUUGUGGUGAGUUGCUUUUGAAAUCUGUUGAGAUUUCCAUGUGAGAACUGAUAAUCAGGCUCUUGAUCUGCUUCCCUAAAUUACUUUUUUAG | 0.465 |
| UUUGUAAAUAUCUCAUCUCCCACUGGAGAGCCCAGGAGCCUAUUCCUGGCAUGGAUGUUCUGUCCACACUUGAGGCUGGGCGGUGUAUCAGACCCUUCAAGCAGCCUGGC | 0.265 |
| CAAGUGUCUCCCUCAGCUUGUGUCCCUUUUUUCCUCCCCUUUCUGUCCUGGGCCUCUGUGUAGAGCAUGGAGGAAGAAGACGACAAGUUGAUAGGUGUGGUGGACAGAGG | 0.353 |
| GGGACAGAUUGAGGAGGAAGUGGGCUCUGAGGCUGCAGGGCUGGAAGUCCUUGCCCACUUCCCACUCUCCUGCCCCAAUCUAUCUAGUACUUCCCAGGCAAAUAGGCCCC | 0.435 |
| UCCCCAAAUGUAAGGACCCAGGUACACUUUCACCCGUGGAAAGCAGUGUCUGUCGAGAGUCUGUUUCCUAUUAAUACUUAUCAAAGCCAUGUGCGAGGGAGGUGGUCAGC | 0.27 |

Set 4
Target: CREB5, bZIP domain (human)
Technique: DHFR protein complementation
Medium: yeast
Notes: single substitutions, most at no-binding floor
Baseline: wild-type JUN-FOS pair
Reading: higher = stronger binding
Starting sequence: JUN, bZIP domain (human); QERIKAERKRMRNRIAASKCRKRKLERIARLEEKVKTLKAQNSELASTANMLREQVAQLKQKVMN; partner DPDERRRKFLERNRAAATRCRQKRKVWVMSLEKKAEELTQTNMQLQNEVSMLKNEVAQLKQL
| Variant | binding fitness |
| --- | --- |
| Q58C | -0.33 natural log |
| L45F | -1.27 natural log |
| A40F | -0.466 natural log |
| L52I | -1.12 natural log |
| A57K | -0.21 natural log |
| Q58V | -0.354 natural log |
| E33I | -0.629 natural log |
| A57H | -0.368 natural log |
| A29C | -0.478 natural log |
| L31F | -0.988 natural log |
| A40M | -0.41 natural log |
| V35A | -1.23 natural log |
| Q58P | -1.22 natural log |
| R30Q | -0.144 natural log |
| Q41A | -0.323 natural log |

Set 5
Molecule: B1 (IAA14)
Technique: two-hybrid
Baseline: out of 4 tests
Reading: higher = firmer interaction
B1: IAA14 (Arabidopsis thaliana, UniProt Q38832); chain MNLKETELCLGLPGGTETVESPAKSGVGNKRGFSETVDLKLNLQSNKQGHVDLNTNGAPKEKTFLKDPSKPPAKAQVVGWPPVRNYRKNVMANQKSGEAEEAMSSGGGTVAFVKVSMDGAPYLRKVDLKMYTSYKDLSDALAKMFSSFTMGSYGAQGMIDFMNESKVMDLLNSSEYVPSYEDKDGDWMLVGDVPWPMFVESCKRLRIMKGSEAIGLAPRAMEKFKNRS
| partner | positive tests |
| --- | --- |
| ETT (Arabidopsis thaliana, UniProt O23661) | 0 |
| ARF12 500-593 (Arabidopsis thaliana, UniProt Q9XID4) | 0 |
| IAA19 (Arabidopsis thaliana, UniProt O24409) | 2 |
| ARF19 948-1086 (Arabidopsis thaliana, UniProt Q8RYC8) | 4 |
| ARF1 538-665 (Arabidopsis thaliana, UniProt Q8L7G0) | 0 |
| ARF7 1030-1164 (Arabidopsis thaliana, UniProt P93022) | 3 |

Some of these lines once more (set 3):
| Strand | RBNS enrichment (R) |
| --- | --- |
| AUUCUUUUGUGUCUGACACUUGUGGUGAGUUGCUUUUGAAAUCUGUUGAGAUUUCCAUGUGAGAACUGAUAAUCAGGCUCUUGAUCUGCUUCCCUAAAUUACUUUUUUAG | 0.465 |
| UUUGUAAAUAUCUCAUCUCCCACUGGAGAGCCCAGGAGCCUAUUCCUGGCAUGGAUGUUCUGUCCACACUUGAGGCUGGGCGGUGUAUCAGACCCUUCAAGCAGCCUGGC | 0.265 |
| CAAGUGUCUCCCUCAGCUUGUGUCCCUUUUUUCCUCCCCUUUCUGUCCUGGGCCUCUGUGUAGAGCAUGGAGGAAGAAGACGACAAGUUGAUAGGUGUGGUGGACAGAGG | 0.353 |
| GGGACAGAUUGAGGAGGAAGUGGGCUCUGAGGCUGCAGGGCUGGAAGUCCUUGCCCACUUCCCACUCUCCUGCCCCAAUCUAUCUAGUACUUCCCAGGCAAAUAGGCCCC | 0.435 |
